Measured values from different studies.
Numbered parts are unrelated; each lists some results of a single study.

Study 1 — method: aptamer microarray, sandwich; molecule type: DNA with 2'F-ANA; sample: in vitro; tested at: 200 nM; added: Cy3 exosite-II aptamer, 400 nM; reading: higher = stronger binding; sequence: GGTTGGTGTGGTTGG
Target: Prothrombin, mature alpha-thrombin (F2, Homo sapiens, UniProt P00734)
Setting: whole 15-mer aptamer, many near background
Modification | mean fluorescence intensity [a.u.]
2'F-ANA at 2 3 4 7 8 10 11 12 15 | 323
2'F-ANA at 2 4 8 9 11 15 | 237
2'F-ANA at 4 5 7 11 13 14 15 | 45.4
2'F-ANA at 1 3 5 8 9 12 13 | 91.4
2'F-ANA at 3 4 5 7 10 11 12 13 | 52.8
2'F-ANA at 1 4 6 7 14 | 49.5
2'F-ANA at 2 3 5 8 9 10 12 13 14 | 54.1
2'F-ANA at 2 4 5 9 12 13 15 | 79.7
2'F-ANA at 1 2 6 7 8 9 11 12 15 | 261
2'F-ANA at 2 4 6 7 8 9 10 11 15 | 73.3
2'F-ANA at 1 2 3 4 5 7 9 10 12 13 15 | 49
2'F-ANA at 1 3 5 6 9 10 12 15 | 54.9
2'F-ANA at 1 4 5 9 10 11 13 | 53.1
2'F-ANA at 1 2 3 6 7 11 13 14 15 | 62
2'F-ANA at 1 2 4 6 7 10 12 13 15 | 54.8
2'F-ANA at 1 2 3 4 6 7 8 10 11 12 | 66.9
2'F-ANA at 1 2 3 4 5 6 8 9 11 13 15 | 49.5
2'F-ANA at 1 2 6 8 11 14 15 | 61
2'F-ANA at 2 3 4 5 6 9 | 89.7
2'F-ANA at 1 2 3 4 9 12 13 | 234
2'F-ANA at 1 2 3 6 7 8 10 11 13 14 | 58.2
2'F-ANA at 1 3 4 6 9 10 12 14 | 73.7
2'F-ANA at 1 6 10 11 | 50.6
2'F-ANA at 1 4 5 7 8 9 10 11 12 14 | 48.9
2'F-ANA at 1 2 4 6 7 8 11 12 13 14 | 81.1

Study 2 — method: RNA Bind-n-Seq; molecule type: RNA; sample: in vitro; tested at: 90 pmol; setting: 4-mer, random 30-nt RNA, single round; baseline: input library; reading: higher = stronger binding
Target: ATP-dependent RNA helicase DDX3X, helicase core (DDX3X, Homo sapiens, UniProt O00571, residues 132-607)
Sequence of UniProt O00571 (132-607, looked up): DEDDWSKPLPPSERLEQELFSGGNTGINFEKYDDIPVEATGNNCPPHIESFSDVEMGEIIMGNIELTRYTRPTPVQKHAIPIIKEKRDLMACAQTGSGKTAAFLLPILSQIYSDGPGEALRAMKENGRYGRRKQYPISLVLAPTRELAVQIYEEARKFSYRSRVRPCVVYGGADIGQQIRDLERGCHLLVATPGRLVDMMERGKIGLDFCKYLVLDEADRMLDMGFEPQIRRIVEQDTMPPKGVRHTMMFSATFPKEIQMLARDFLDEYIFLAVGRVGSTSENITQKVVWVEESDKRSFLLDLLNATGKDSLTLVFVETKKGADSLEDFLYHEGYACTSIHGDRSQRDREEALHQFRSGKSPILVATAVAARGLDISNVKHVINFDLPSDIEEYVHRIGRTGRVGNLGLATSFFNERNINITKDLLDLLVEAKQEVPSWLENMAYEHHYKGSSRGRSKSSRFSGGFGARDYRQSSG
Added: 3 µM iPr-DMDA-PatA, 2 mM ADP, 2 mM phosphate
Sequence | 4-mer enrichment [fold]
UUUU | 1.19
UACG | 0.943
GGAA | 1.37
AGCU | 0.86
CGGC | 0.652
UAGG | 1.03
UCUG | 0.815
UGAG | 1.12
UGGC | 0.683
AGAA | 1.64
AUUC | 1.01
CCAC | 1.23
AGAC | 1.3
UAUA | 1.3
UCUC | 0.911
GCUC | 0.761
ACCC | 1.42
ACAU | 1.06
UGGU | 0.852
UCCC | 1.2
CGCG | 0.768
AGCC | 0.965
CAUU | 0.909
AAGA | 1.75
UUUG | 0.972

Study 3 — method: protein-binding microarray; molecule type: double-stranded DNA, one strand shown; sample: in vitro; tested at: 940 nM top; setting: 60-bp whole probe; added: salmon DNA 0.4 mg/ml; baseline: random background probes; reading: higher = stronger binding; all sequences stand within: GCCTAGCAC … GTCTTGATTCGCTTGACGCTGCTG
Target: Interferon regulatory factor 5, full length, phosphomimetic (IRF5, Homo sapiens, UniProt Q13568-2, residues 1-514, S451D/S453D/S456D/S462D)
Sequence | fitted relative affinity
GAAGGTTTCGACACTGGGGACGTGCTA | 6.1 z-score
TTCGATTTCAGTATCGATTAGTGCTAG | 6.46 z-score
CAGGAAATCAACTTTTTTTAAGTGCTA | 0.0588 z-score
GCCGGTTTCGACACTGGGGACGTGCTA | 8.53 z-score
TTAGATATCAGAGTGGATTAGTGCTAG | -0.537 z-score
ATAGGTATCGACTTTCGGTTAGTGCTA | 5.48 z-score
CGAGGTCTCGCTATGTTGTCGTGCTAG | 1.06 z-score
TTAGATATCAGTCTCGATTAGTGCTAG | 3.37 z-score
TTAGTTTTCCTACTGCTTTAGTGCTAG | 1.47 z-score
TTAGGAGTGCTTTTCCTTTAGTGCTAG | -0.491 z-score
GACGATTTCAGTGCCGAGACGTGCTAG | -0.137 z-score
TTAGATATCCGGACTGGATTAGTGCTA | -0.494 z-score
TTAGATCTCAGTCTCGATTAGTGCTAG | 3 z-score
TCAGGTATCCTTATCCTTTAGTGCTAG | 0.486 z-score
GACGATTTCTGTTTCGAGACGTGCTAG | 2.67 z-score
TCAAAAATGATTGGTTGACTGTGCTAG | -0.465 z-score
GACGGTTTCCTTATCCGGACGTGCTAG | 2.23 z-score
GACGTACTGAGACTGGAGACGTGCTAG | -0.188 z-score
TATCAGTAGGTAAGGAAAAGGTGCTAG | 0.331 z-score
TTAGGTATCTACACTGGGTTAGTGCTA | 0.608 z-score
CTAGATTTCAGTTTCGATTAGTGCTAG | 9.39 z-score
TTAGATTCCAGTTTCGATTCGTGCTAG | 7.78 z-score
GACGGTATCGAGTTTCGGGACGTGCTA | 5.5 z-score
GTAGGTCTCCTTCTCCTTTAGTGCTAG | 0.332 z-score
GACGAACTGAGTAGCGAGACGTGCTAG | -0.508 z-score

Study 4 — method: RNA Bind-n-Seq; molecule type: RNA; sample: in vitro; tested at: 365 nM; baseline: no-protein control; reading: higher = stronger binding
Target: RNA binding protein fox-1 homolog 2, RRM domain, GST-SBP tag (RBFOX2, Homo sapiens, UniProt O43251-10, residues 100-194)
Setting: natural RNA segment, single round, ends assumed
All sequences stand within: GGGAGUUCUACAGUCCGACGAUC … UGGAAUUCUCGGGUGCCAA
Target sequence (chain): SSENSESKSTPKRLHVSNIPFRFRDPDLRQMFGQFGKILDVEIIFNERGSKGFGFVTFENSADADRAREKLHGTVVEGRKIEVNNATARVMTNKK
Sequence | RBNS enrichment (R)
CCUGACUCCCAGGAUCCUCCUACCCUCAUCUCACAGAUAACUUCAUGCAUCAAACUGGAACCCCUACCUCAUAUUUCCUGCUCCAGGAAGGUUGAGGUUGAAAAAAAAGA | 2
GAUAAAGUGUGUUUUCAGGCUCAAUUAUUUCACCUUAAUGUAAUGUACUGUAAGAUUUUGUACUGAAUUUCAUUUUUUUAAAUUAUGCUCAAGAACUUAAUUUUUAACCA | 0.642
GUCUUCUGGCUACUAAGUGAUAAAAAGAACAUUAACAACCUUUAAUUACCUUCCUAGUGGGAACUUUUUCUACUUUACCUACAAGUUCUAUAUAUGUAGAAAUGAAUAAA | 0.418
GAUCUUGACUCUGAGGAGAGCCAGCCCUGUAAAAAGCUUGGUCCUCCUGUGACGGGAGGGAUGGUUAAGGUACAAAGGCUAGAAACUUGAGUUUCUUCAUUUCUGUCUCA | 0.317
AGGAUGGAGCUAGAAAGCUCAGAGUGGGCCAGAGCAGGGGUGUGACACUUGCAAAGACAGGGCUCUGACUCUGAUCCCUCCCAGGGAGCCUCCGACACCCAUCCCACUCC | 0.448
GGGAACAUUUAUGAUUUUCUUUCAACAUUAAAACUGAAGUUAGUUUUGCCAUUUUUGAAAGUAUUAGUAAAAUCAUGGAAUACAUCACAGAACAGCUGUCCAUCAGUGAG | 0.554
CAAAGCCCUGCCAGCAAGGGGAUGGCACCACUGGAGCUCUUGCCAAAUCACUCUCAGCCCUGUAUUUGGUACCGGUGUGUCCCAGGUCAAUGUACAGAACUGCAGCCAAG | 0.505
CUGAUUGGCCUCCUUCUGGGAUCCCAGGCUGCUGAGGAAGCUACUGCUACAUCCCUACCCCAAGGGGCUUGGUCAAGGUGCCUGUUCCUGGCUCUCUGGCUGCAUGUGAU | 4.87
AUCAUGUCCAACCUGCUGGAGCCCCUUCACAUGGUGGAUGAUGCCCCAUGACCCUGUAGAAAUUGAAUCCUGCUCACAACAUUGUUGGCCUUCUUACUAACCUUGGACCG | 0.776
GAUUGUGAGUGUGUGUGGGGUGCUCACACGCGUGCCAGUCUUUUUGUACUGUAACUACCUCAUGGUUUGAAUGAUGAUUGUACUGCUGGUUGUGUUAACAGAGCACAUUU | 1.17
AACAGUGGGGUAUGUGAUGGUUUUGGCAUGACAUCUUCAGUAUGAGGGGGACAGUUUGACUUCACUUUGAGGGUGUGAUGUCUGUAGCUAUGUGGAAGGUAAAAAUAGUG | 1.99
CCACAUGUACAGUGUCUGUAUAUAAAUGUGCUGUAUCUGUUCAUUUCUAUGACUGCAGGGUUUUUUUAUACAGUGUUUUUGGAUUCAUAAUAAAUUGAUGGUUUUUUAUG | 0.606

Some of these lines once more (study 3):
Sequence | fitted relative affinity
GCCGGTTTCGACACTGGGGACGTGCTA | 8.53 z-score
ATAGGTATCGACTTTCGGTTAGTGCTA | 5.48 z-score
TTAGGAGTGCTTTTCCTTTAGTGCTAG | -0.491 z-score
TTAGATATCCGGACTGGATTAGTGCTA | -0.494 z-score
GACGATTTCTGTTTCGAGACGTGCTAG | 2.67 z-score
CAGGAAATCAACTTTTTTTAAGTGCTA | 0.0588 z-score
TTAGATATCAGAGTGGATTAGTGCTAG | -0.537 z-score
GACGTACTGAGACTGGAGACGTGCTAG | -0.188 z-score
GACGAACTGAGTAGCGAGACGTGCTAG | -0.508 z-score
